Published values collected from several papers.
Every numbered part comes from another study and shows a few of its results, in no order. Positions count from the first letter of the parent shown.

Study 1
Target: Sal-like protein 4, full length isoform B (SALL4, Homo sapiens, UniProt Q9UJQ4-2, residues 1-616)
Technique: universal PBM
Form: double-stranded DNA, one strand shown
Medium: in vitro
Concentration: not given
Setting: 8-mer, flanks averaged, mean of replicates
Direction: higher = stronger binding
Oligonucleotide | E-score
CGGTCACC | -0.331
AGGATTAA | 0.147
TGTTGCAA | 0.119
CTAGCCCC | -0.212
CCGAGTTA | 0.004
GGAGTACA | -0.0515
CCGCAACC | -0.258

Study 2
Target: CCNE2, cyclin fold, Cln2 fusion (human)
Technique: yeast growth competition, sequencing
Medium: yeast
Setting: weak parent motif
Baseline: not given
Direction: higher = stronger binding
Parent: CDC6 docking peptide (human); TLKGRRLVFDNQL; partner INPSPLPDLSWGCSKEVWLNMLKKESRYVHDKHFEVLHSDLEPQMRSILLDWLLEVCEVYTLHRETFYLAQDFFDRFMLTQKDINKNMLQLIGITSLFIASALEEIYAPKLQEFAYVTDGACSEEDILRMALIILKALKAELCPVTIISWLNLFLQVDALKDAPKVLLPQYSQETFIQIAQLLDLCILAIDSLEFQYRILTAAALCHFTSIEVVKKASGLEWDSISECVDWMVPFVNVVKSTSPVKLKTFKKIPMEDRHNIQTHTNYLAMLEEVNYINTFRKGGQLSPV
Variant | normalised enrichment score
R6C | 0.485
V8N | 1.16
L2K | 0.438
D10M | 1.83

Other studies, line by line
Molecule | target or system | assay | test system | conditions | scale | endpoint | result
SEC61B (Homo sapiens, UniProt P60468) | LRRC59 (Homo sapiens, UniProt Q96AG4) | cross-linking MS | cell fractions | added: DMTMM |  | cross-linked residues | P2 to D117
PhoQ, residues 284 288 289 292 302 303 AGHLVA | PhoP, residues 12 14 15 18 19 LHSVW (Escherichia coli, UniProt P23836) | Sort-seq, measured: YFP reporter | E. coli | PhoQ-PhoP variant library, added: 10 µM Mg2+ | baseline: high Mg2+ state, higher = stronger signaling | fold induction | 1.5
DNAJC8 (Homo sapiens, UniProt O75937) | SF3A2 (Homo sapiens, UniProt Q15428) | cross-linking MS | cell fractions | added: DSSO |  | cross-linked residues | K183 to K42

A few entries again (other studies, line by line):
Molecule | target or system | assay | test system | conditions | scale | endpoint | result
DNAJC8 (Homo sapiens, UniProt O75937) | SF3A2 (Homo sapiens, UniProt Q15428) | cross-linking MS | cell fractions | added: DSSO |  | cross-linked residues | K183 to K42
